# Experimental data from different studies.
# Each line is one published result; not all experiments were run side by side. “And” joins repeats or separate records; there may be more than shown. Numbers after ± are the reported error.
SMILES,test,system,conditions,how to read,quantity,result
Cc1cc(/C=C/C#N)cc(C)c1Oc1nc(NC2CCN(Cc3ccc(S(C)(=O)=O)cc3)CC2)nc2ncccc12,,"Sprague-Dawley rat, plasma","intravenous, 2 mg/kg",,volume of distribution,1.51 ± 0.154 L/kg
O=C(NCCO)c1ccc([C@H]2[C@@H](F)[C@@H](F)C[C@@H](F)[C@H]2F)cc1,liver microsome stability,dog liver microsomes,1 µM,,hepatic clearance,7.3 mL/min/kg
CN1CC[C@@H](COc2cnc(C#N)cc2-c2ccn3nc(NC(=O)C4CC4)cc3c2)C1,,"rat, Sprague-Dawley, male, plasma","intravenous, 1 mg/kg",,volume of distribution,10 L/kg
COc1cccc(OC)c1-c1cc(C(=O)NC2(C(=O)O)C3CC4CC(C3)CC2C4)nn1-c1ccc(C(=O)N(C)CCOCCN(C)C(=O)[C@H](CCCCNC(=O)[C@H](CC(C)C)NC(=O)C2OC2C(=O)O)NC(=O)CN2CCN(CC(=O)[O-])CCN(CC(=O)[O-])CCN(CC(=O)[O-])CC2)cc1C(C)C.[177Lu+3] (mixture of isomers),,"mouse, HT-29 xenograft","4 h post injection, biodistribution",reference: tumour over bone uptake,tumour-to-bone ratio,10.7
COc1ccc2c(c1)CN(C(=O)CCN1CCC(Cc3ccccc3)CC1)CC[S+]2[O-] (centres unmarked),,human plasma,750 ng/mL,,fu,0.162
O=C(Nc1cnccc1-c1ccc([18F])nc1)c1ccnc(NC(=O)C2CC2)c1,,"mice, transgenic, GSK-3β, early-stage, hippocampus","intravenous, dose not given, 120 min",,SUV,0.02
CC1(C)CC[C@]2(NC(=O)C(C)(F)F)CC[C@]3(C)[C@H](C(=O)C=C4[C@@]5(C)C=C(C#N)C(=O)C(C)(C)[C@@H]5CC[C@]43C)[C@@H]2C1,geometric least squares mean,"human, plasma","oral, dose not given, added: itraconazole",,AUC(0-inf),7130 ng·h/mL
COc1ccccc1NC(=O)OC1C(C)C(OC)C=COC2(C)Oc3c(C)c(O)c4c(c3C2=O)C2=NC3(CCN(CC(C)C)CC3)NC2=C(NC(=O)C(C)=CC=CC(C)C(O)C(C)C(O)C1C)C4=O (centres unmarked),,"CD-1 mouse, plasma","oral, dose not given, efficacy dose",,AUC,41800 ng·h/mL
C=C(NC(=O)c1csc(-c2nc3c(cc2O)-c2nc(cs2)C(=O)NC(C(C)O)C(=O)NC(=C(C)OC)c2nc(cs2)C(=O)NC2c4nc(cs4)C(=O)NC(COC(=O)c4c5c6c(cccc6n4O)COC(=O)C(OC4CC(C)(O)C(N(C)C)C(C)O4)C2OC5)c2nc-3cs2)n1)C(N)=O (centres unmarked),,"Sprague-Dawley rat, male, plasma","intravenous infusion, 18 mg/kg single dose",,volume of distribution,31.7 L/kg
O=C(CN1CCOCC1)Nc1ccc([C@H]2[C@@H](F)[C@@H](F)C[C@@H](F)[C@H]2F)cc1,liver microsome stability,human liver microsomes,"1 µM, without NADPH",,hepatic clearance,3.9 mL/min/kg
Cc1cc(-c2ccc(C(=O)[C@@H]3CCCC[C@H]3C(=O)Nc3cnn4c3C(=O)NCC4)cc2)[nH]n1,,"human, urine","oral, 200 mg, 192-216 h",reference: dose,recovery of radioactivity per interval,< 0.01%
NS(=O)(=O)c1cccc(-c2ccc([C@H]3[C@@H](F)[C@@H](F)C[C@@H](F)[C@H]3F)cc2)c1,liver microsome stability,human liver microsomes,"1 µM, without NADPH",,hepatic clearance,3.9 mL/min/kg
C=C1C[C@]2(C(=O)OC)C=C(C(=O)Nc3cccc(C(=O)Nc4ccc(Nc5nccc(-c6cccnc6)n5)c(C)c4)c3)C(=O)[C@H]1C2,,"Wistar rat, male, plasma","10 µM, 10 min",,compound remaining,8.4% and 8.79%
O=C(Nc1ccc(C2CCCCC2)cc1)C1(N2CCOCC2)CC1,liver microsome stability,rat liver microsomes,1 µM,,hepatic clearance,52 mL/min/kg
O=C(N1CCCCC1)C12CC(c3ccccc3)(C1)C2(Cl)Cl,metabolic stability,"human, liver microsomes","2 µM, 40 min, pH 7.4",,compound remaining,35%
CN(C)C(=O)CNC(=O)c1ccc(C2CCCCC2)cc1,liver microsome stability,human liver microsomes,"1 µM, without NADPH",,hepatic clearance,7 mL/min/kg
C=CC(=O)Nc1cc(Nc2nccc(-c3c[nH]c4ccccc34)n2)c(OC)cc1N(C)CCN(C)C,storage stability,human dried blood spots,"72 h, on ice, medium QC level",,recovery,64.2%

# Some of these lines once more:
SMILES,test,system,conditions,how to read,quantity,result
Cc1cc(-c2ccc(C(=O)[C@@H]3CCCC[C@H]3C(=O)Nc3cnn4c3C(=O)NCC4)cc2)[nH]n1,,"human, urine","oral, 200 mg, 192-216 h",reference: dose,recovery of radioactivity per interval,< 0.01%
O=C(Nc1cnccc1-c1ccc([18F])nc1)c1ccnc(NC(=O)C2CC2)c1,,"mice, transgenic, GSK-3β, early-stage, hippocampus","intravenous, dose not given, 120 min",,SUV,0.02
